Results collected from several papers.
Parts stem from different laboratories: compare values within a part only.

Series 1 — technique: protein-binding microarray; molecule type: double-stranded DNA, one strand shown; matrix: in vitro; concentration: 2200 nM top; setting: 60-bp whole probe; added: salmon DNA 0.4 mg/ml; baseline: random background probes; direction: higher = stronger binding
Target: Interferon regulatory factor 7, full length, phosphomimetic (IRF7, Homo sapiens, UniProt Q92985, residues 1-503, S471D/S472D/S475D/S476D/S477D/S483D/S484D/S487D)
All sequences stand within: GCCTAGCAC … GTGCTAGGTCTTGATTCGCTTGACGCTGCTG
Target sequence (chain): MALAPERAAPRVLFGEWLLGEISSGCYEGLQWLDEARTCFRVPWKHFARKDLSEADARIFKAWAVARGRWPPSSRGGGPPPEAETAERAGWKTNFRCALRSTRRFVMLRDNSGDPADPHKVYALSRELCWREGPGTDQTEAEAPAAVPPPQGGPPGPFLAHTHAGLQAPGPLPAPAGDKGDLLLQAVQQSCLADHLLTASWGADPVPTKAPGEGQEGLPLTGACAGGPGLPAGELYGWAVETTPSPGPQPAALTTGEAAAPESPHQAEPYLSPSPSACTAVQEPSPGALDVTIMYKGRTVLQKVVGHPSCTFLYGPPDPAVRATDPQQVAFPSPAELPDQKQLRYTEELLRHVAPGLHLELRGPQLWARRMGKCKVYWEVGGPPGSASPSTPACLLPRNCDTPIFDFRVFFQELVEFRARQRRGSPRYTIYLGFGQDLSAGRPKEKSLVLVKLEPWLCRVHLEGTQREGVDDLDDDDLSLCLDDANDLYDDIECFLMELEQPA
Strand | fitted relative affinity [z-score]
TCAACTCGCCTTTTTTGACT | 1.3
ATATATTTATGTATACACAC | 1.1
GACAGTTTCCTTCTCCTGAC | 3.69
TTAGATTCCAGTTTCGCTTA | 6.03
GACGGTTTCCTCCTCCTGAC | 2.52

Series 2 — technique: universal PBM; molecule type: double-stranded DNA, one strand shown; matrix: in vitro; concentration: not given; direction: higher = stronger binding
Target: Sal-like protein 4, full length isoform B (SALL4, Homo sapiens, UniProt Q9UJQ4-2, residues 1-616)
Setting: 8-mer, flanks averaged, mean of replicates
Construct (chain): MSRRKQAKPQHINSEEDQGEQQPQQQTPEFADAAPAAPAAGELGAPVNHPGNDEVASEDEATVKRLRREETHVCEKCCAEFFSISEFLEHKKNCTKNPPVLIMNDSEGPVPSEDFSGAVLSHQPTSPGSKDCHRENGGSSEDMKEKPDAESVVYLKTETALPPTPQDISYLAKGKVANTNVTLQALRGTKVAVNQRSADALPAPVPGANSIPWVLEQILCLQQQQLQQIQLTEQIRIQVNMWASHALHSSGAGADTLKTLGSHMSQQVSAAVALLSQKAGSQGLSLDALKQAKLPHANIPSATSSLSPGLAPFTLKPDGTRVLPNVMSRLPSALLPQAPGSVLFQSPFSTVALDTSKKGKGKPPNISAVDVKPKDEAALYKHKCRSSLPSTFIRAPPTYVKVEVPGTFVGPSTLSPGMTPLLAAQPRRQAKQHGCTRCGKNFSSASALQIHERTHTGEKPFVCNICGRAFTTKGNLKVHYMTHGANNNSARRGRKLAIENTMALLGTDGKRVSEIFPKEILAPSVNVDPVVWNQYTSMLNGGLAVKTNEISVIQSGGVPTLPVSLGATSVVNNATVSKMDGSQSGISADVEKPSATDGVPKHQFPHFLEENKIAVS
Strand | E-score
CCGCAGAG | -0.236
GGGGTGTA | -0.107
GCTCCGAC | -0.219
ACCGAGCC | -0.303
CCTGGAGC | -0.201

Series 3 — technique: protein binding microarray; molecule type: double-stranded DNA, one strand shown; matrix: in vitro; concentration: not given; baseline: not given; direction: higher = stronger binding
Target: Histone acetyltransferase KAT6A, both winged helices, GST fusion (KAT6A, Homo sapiens, UniProt Q92794, residues 1-181)
Setting: 8-mer, flanks averaged, mean of 2 arrays, mostly near background
Target sequence (chain): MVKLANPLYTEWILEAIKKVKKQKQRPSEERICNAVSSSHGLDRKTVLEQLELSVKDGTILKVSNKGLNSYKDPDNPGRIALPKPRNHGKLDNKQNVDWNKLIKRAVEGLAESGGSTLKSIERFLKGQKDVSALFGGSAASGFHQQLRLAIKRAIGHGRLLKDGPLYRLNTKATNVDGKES
Strand | E-score
ATACCAGG | -0.129
AGCAAGGA | -0.252
ATTTTGCG | 0.027
CAGCATCC | -0.00266

Further values, each from its own experiment
Molecule | target | test | system | conditions | scale | quantity | value
PhoQ, residues 284 288 289 292 302 303 SLANKL | PhoP, residues 12 14 15 18 19 LHSVQ (Escherichia coli, UniProt P23836) | Sort-seq, refers to: YFP reporter | E. coli | PhoQ-PhoP variant library, added: 10 µM Mg2+ | baseline: high Mg2+ state, higher = stronger signaling | fold induction | 6.85

A few entries again (series 1):
Strand | fitted relative affinity [z-score]
GACAGTTTCCTTCTCCTGAC | 3.69
TTAGATTCCAGTTTCGCTTA | 6.03
